Published values of several laboratories.
Lines come from different studies, so protocols differ. ± marks the error that the study gave.

SMILES = N=C(N)NCCC[C@@H]1NC(=O)[C@H](CC(=O)NC23CNCCNCC(N)(CNCCNC2)CNCCNC3)NC(=O)[C@@H](Cc2ccccc2)NC(=O)[C@H](CC(=O)O)NC(=O)CNC1=O [copper-64 labelled]; system = Nu/Nu mouse, male, tumour-bearing, blood; setting = intravenous, 10 µCi, 2 h; tissue uptake = 0.14 ± 0.04 %ID/g
SMILES = N=C(N)NCCC[C@@H]1NC(=O)[C@H](CCCCNC(=O)CC[C@H](NC(=O)CCOCCOCCOCCOCCNC(=O)CN2CCN(CC(=O)O)CCN(CC(=O)O)CCN(CC(=O)O)CC2)C(=O)NCCCC[C@@H]2NC(=O)[C@@H](Cc3ccccc3)NC(=O)[C@H](CC(=O)O)NC(=O)CNC(=O)[C@H](CCCNC(=N)N)NC2=O)NC(=O)[C@@H](Cc2ccccc2)NC(=O)[C@H](CC(=O)O)NC(=O)CNC1=O [indium-111 labelled]; system = female athymic nude mice, intestine; setting = intravenous, 3 µCi, 1 h, U-87 MG glioma xenograft; tissue uptake = 5.99 ± 2.93 %ID/g
SMILES = CCCC[C@H](NC(=O)COCCOCCNC(=O)c1ccc(NN)nc1)C(=O)N[C@H]1CC(=O)NCCCC[C@@H](C(N)=O)NC(=O)[C@H](Cc2c[nH]c3ccccc23)NC(=O)[C@H](CCCNC(=N)N)NC(=O)[C@@H](Cc2ccccc2)NC(=O)[C@H](Cc2c[nH]cn2)NC1=O [technetium-99m labelled]; system = C57 mouse, female, B16/F1 melanoma, stomach; setting = intravenous, 0.037 MBq, 2 h; tissue uptake = 0.43 ± 0.05 %ID/g
SMILES = CCCC[C@H](NC(=O)CNC(=O)CNC(=O)c1ccc(NN)nc1)C(=O)N[C@H]1CC(=O)NCCCC[C@@H](C(N)=O)NC(=O)[C@H](Cc2c[nH]c3ccccc23)NC(=O)[C@H](CCCNC(=N)N)NC(=O)[C@@H](Cc2ccccc2)NC(=O)[C@H](Cc2c[nH]cn2)NC1=O [technetium-99m labelled]; system = C57 mouse, B16/F1 melanoma-bearing, stomach; setting = intravenous, 4 h; tissue uptake = 0.52 ± 0.24 %ID/g
SMILES = N=C(N)NCCC[C@@H]1NC(=O)[C@H](CCCCNC(=O)CCOCCOCCOCCOCCNC(=O)CC[C@H](NC(=O)CCOCCOCCOCCOCCNC(=O)CC[C@H](NC(=O)CN2CCN(CC(=O)O)CCN(CC(=O)O)CCN(CC(=O)O)CC2)C(=O)NCCOCCOCCOCCOCCC(=O)N[C@@H](CCC(=O)NCCOCCOCCOCCOCCC(=O)NCCCC[C@@H]2NC(=O)[C@@H](Cc3ccccc3)NC(=O)[C@H](CC(=O)O)NC(=O)CNC(=O)[C@H](CCCNC(=N)N)NC2=O)C(=O)NCCOCCOCCOCCOCCC(=O)NCCCC[C@@H]2NC(=O)[C@@H](Cc3ccccc3)NC(=O)[C@H](CC(=O)O)NC(=O)CNC(=O)[C@H](CCCNC(=N)N)NC2=O)C(=O)NCCOCCOCCOCCOCCC(=O)NCCCC[C@@H]2NC(=O)[C@@H](Cc3ccccc3)NC(=O)[C@H](CC(=O)O)NC(=O)CNC(=O)[C@H](CCCNC(=N)N)NC2=O)NC(=O)[C@@H](Cc2ccccc2)NC(=O)[C@H](CC(=O)O)NC(=O)CNC1=O [indium-111 labelled]; system = female athymic nude mice, intestine; setting = intravenous, 3 µCi, 0.5 h, U-87 MG glioma xenograft; tissue uptake = 11.6 ± 2.52 %ID/g
SMILES = CSCC[C@H](NC(=O)[C@H](CC(C)C)NC(=O)[C@H](Cc1c[nH]cn1)NC(=O)CNC(=O)[C@@H](NC(=O)[C@H](C)NC(=O)[C@H](Cc1c[nH]c2ccccc12)NC(=O)[C@H](CCC(N)=O)NC(=O)CCCCCNC(=O)CNC(=O)CNC(=O)CNC(=O)CSC(C)=O)C(C)C)C(N)=O [technetium-99m labelled]; system = nude mouse, PC-3 xenograft, bone; setting = 90 min; tissue uptake = 0.24 ± 0.08 %ID/g
SMILES = CSCC[C@H](NC(=O)[C@H](CC(C)C)NC(=O)[C@H](Cc1c[nH]cn1)NC(=O)CNC(=O)[C@@H](NC(=O)[C@H](C)NC(=O)[C@H](Cc1c[nH]c2ccccc12)NC(=O)[C@H](CCC(N)=O)NC(=O)CCCCCCCNC(=O)CCC(=O)Nc1ccc(CNC23CNCCNCC(N)(CNCCNC2)CNCCNC3)cc1)C(C)C)C(N)=O [copper-64 labelled]; system = female SCID mice, PC-3 xenograft, lung; setting = intravenous, 0.6 MBq, 4 h; tissue uptake = 0.679 ± 0.028 %ID/g
SMILES = N=C(N)NCCC[C@@H]1NC(=O)[C@H](CCCCNC(=O)CNC(=O)CNC(=O)CNC(=O)CC[C@H](NC(=O)CCOCCOCCOCCOCCNC(=O)CC[C@H](NC(=O)CN2CCN(CC(=O)O)CCN(CC(=O)O)CCN(CC(=O)O)CC2)C(=O)NCCOCCOCCOCCOCCC(=O)N[C@@H](CCC(=O)NCC(=O)NCC(=O)NCC(=O)NCCCC[C@@H]2NC(=O)[C@@H](Cc3ccccc3)NC(=O)[C@H](CC(=O)O)NC(=O)CNC(=O)[C@H](CCCNC(=N)N)NC2=O)C(=O)NCC(=O)NCC(=O)NCC(=O)NCCCC[C@@H]2NC(=O)[C@@H](Cc3ccccc3)NC(=O)[C@H](CC(=O)O)NC(=O)CNC(=O)[C@H](CCCNC(=N)N)NC2=O)C(=O)NCC(=O)NCC(=O)NCC(=O)NCCCC[C@@H]2NC(=O)[C@@H](Cc3ccccc3)NC(=O)[C@H](CC(=O)O)NC(=O)CNC(=O)[C@H](CCCNC(=N)N)NC2=O)NC(=O)[C@@H](Cc2ccccc2)NC(=O)[C@H](CC(=O)O)NC(=O)CNC1=O [indium-111 labelled]; system = female athymic nude mice, brain; setting = intravenous, 3 µCi, 72 h, U-87 MG glioma xenograft; tissue uptake = 0.04 ± 0.02 %ID/g
SMILES = CCCC[C@H](NC(=O)CCCCCCCNC(=O)c1ccc(NN)nc1)C(=O)N[C@H]1CC(=O)NCCCC[C@@H](C(N)=O)NC(=O)[C@H](Cc2c[nH]c3ccccc23)NC(=O)[C@H](CCCNC(=N)N)NC(=O)[C@@H](Cc2ccccc2)NC(=O)[C@H](Cc2c[nH]cn2)NC1=O [technetium-99m labelled]; system = C57 mouse, B16/F1 melanoma, kidneys; setting = 2 h, added: L-lysine 12 mg co-injected; tissue uptake = 4.64 ± 0.48 %ID/g

Excerpt of the above:
SMILES = CCCC[C@H](NC(=O)COCCOCCNC(=O)c1ccc(NN)nc1)C(=O)N[C@H]1CC(=O)NCCCC[C@@H](C(N)=O)NC(=O)[C@H](Cc2c[nH]c3ccccc23)NC(=O)[C@H](CCCNC(=N)N)NC(=O)[C@@H](Cc2ccccc2)NC(=O)[C@H](Cc2c[nH]cn2)NC1=O [technetium-99m labelled]; system = C57 mouse, female, B16/F1 melanoma, stomach; setting = intravenous, 0.037 MBq, 2 h; tissue uptake = 0.43 ± 0.05 %ID/g
